Experimental data from different studies.
Lines come from different studies, so protocols differ. “And” joins repeats or separate records; there may be more than shown. ± marks the error that the study gave.

SMILES	test	test system	conditions	how to read	measurement	result
O=C(NC1CCNCC1)c1n[nH]cc1NC(=O)c1c(Cl)cccc1Cl	ECG, Bazett correction	patients	intravenous, dose not given	–	QTc increase	< 30 ms
CC[C@H](C)[C@H](NC(=O)[C@@H](N)CCCNC(=N)N)C(=O)N[C@H](C(=O)N1CCC[C@H]1C(=O)N[C@@H](C)C(N)=O)C(C)C	–	human, plasma	intravenous, 0.15 mg/kg, single dose, healthy volunteers	–	MRT	5.4 min
CC(=O)O[C@H]1C(=O)[C@@]2(C)[C@H]([C@H](OC(=O)c3ccccc3)[C@]3(O)C[C@H](OC(=O)[C@H](O)[C@@H](NC(=O)c4ccccc4)c4ccccc4)C(C)=C1C3(C)C)[C@]1(OC(C)=O)CO[C@@H]1C[C@@H]2O	–	BALB/c mouse, serum	intraperitoneal, 10 mg/kg every three days, 60 days	–	LDH	632 U/L and 568 U/L and 608 U/L
CC[C@@]1(O)C(=O)OCc2c1cc1n(c2=O)Cc2cc3c(CN(C)C)c(O)ccc3nc2-1	–	human patients, plasma	oral, 2.5 mg daily for 5 days, MTD arm, daily dosing, together with: pazopanib	reference: with pazopanib over alone	AUC(0-inf) ratio	1.48
CNC(=O)c1ccc(-c2cnn3ccc(C(=O)N(C)c4ccc(Cl)c(C(=O)OC)c4)cc23)cc1	–	beagle dogs, both sexes, plasma	oral, 15 mg/kg/day, day 14	–	Cmax	20 ng/mL
CN[C@@](C)(C[18F])C(=O)O	–	SCID mouse SK-OV-3 xenograft, kidney	60 min, post injection	–	tissue uptake	5.1 ± 0.8 %ID/g
CC(=O)N[C@H](CCCCNC(=O)C(C)F)C(=O)N[C@@H](CS)C(=O)N[C@@H](CS)C(=O)N[C@@H](CCC(=O)O)C(=O)N[C@@H](Cc1c[nH]cn1)C(=O)N[C@H](Cc1ccccc1)C(=O)N[C@@H](CCCNC(=N)N)C(=O)N[C@@H](Cc1c[nH]c2ccccc12)C(=O)N[C@@H](CS)C(=O)N[C@@H](CCCNC(=N)N)C(=O)N1CCC[C@H]1C(=O)N[C@H](C(N)=O)C(C)C (stereo partly drawn) [fluorine-18 labelled]	–	C57BL/6 mice, male, B16-F10 tumour, muscle	intravenous, 2 h	–	tissue uptake	0.17 ± 0.03 %ID/g
NC(=O)c1nc(F)c[nH]c1=O	UV-Vis spectrophotometry	supercritical CO2	308 to 338 K, 12 to 30 MPa, overall range	–	solubility	4 to 2620 µg/mL
CC(=O)N[C@H](C(=O)N[C@@H](CO)C(=O)N[C@@H](CCCNC(=N)N)C(=O)N[C@@H](CCCNC(=N)N)C(=O)N[C@@H](CCCNC(=N)N)C(N)=O)C(C)C	–	healthy adults	intravenous infusion, 1 mg/kg every 6 h, over 30 min, maximum among subjects	reference: dose 13 over dose 1	AUC(tau) accumulation ratio	1.5
CC(C)[C@H]1C(=O)N[C@@H](CCCN=C(N)N)C(=O)NCC(=O)N[C@@H](CC(=O)O)C(=O)N[C@H](Cc2ccccc2)C(=O)N1C	–	NMRI mice, male, plasma	intravenous, 2.5 mg/kg	–	plasma half-life	19.2 min
CC1N=C(c2ccccc2F)c2cc(Nc3cccc(C#N)c3)ccc2NC1=O (stereo not drawn)	shake flask	PBS	24 h, pH 7.4	–	solubility	1.35 µM
CCCCCCCCCCCCCCCCCC[N+](C)(C)Cc1ccccc1	substrate depletion	human liver microsomes	0.5 µM, 0 to 3 h, 37 °C, together with: NADPH	–	intrinsic clearance	0.23 mL/h/mg protein

Repeated from above:
SMILES	test	test system	conditions	how to read	measurement	result
CC(=O)O[C@H]1C(=O)[C@@]2(C)[C@H]([C@H](OC(=O)c3ccccc3)[C@]3(O)C[C@H](OC(=O)[C@H](O)[C@@H](NC(=O)c4ccccc4)c4ccccc4)C(C)=C1C3(C)C)[C@]1(OC(C)=O)CO[C@@H]1C[C@@H]2O	–	BALB/c mouse, serum	intraperitoneal, 10 mg/kg every three days, 60 days	–	LDH	632 U/L and 568 U/L and 608 U/L
